# Measured values of several laboratories.
# Each line is one published result; not all experiments were run side by side. Numbers after ± are the reported error.
Compound,test,system,conditions,how to read,measurement,result
CC[C@H](C)[C@H](NC(=O)[C@H](CC(C)C)NC(=O)[C@H](Cc1c[nH]c2ccccc12)NC(=O)[C@H](C)NC(=O)[C@@H](NC(=O)[C@H](Cc1ccccc1)NC(=O)[C@H](CC(=O)O)NC(=O)[C@H](CCCNC(=N)N)NC(=O)[C@H](C)NC(=O)[C@H](C)NC(=O)[C@H](CC(C)C)NC(=O)[C@H](C)NC(=O)[C@H](CC(=O)O)NC(=O)[C@H](CC(C)C)NC(=O)[C@@H](NC(=O)[C@@H](NC(=O)[C@H](C)NC(=O)[C@H](CC(C)C)NC(=O)[C@H](CCC(=O)O)NC(=O)[C@H](CO)NC(=O)[C@H](CO)NC(=O)[C@H](Cc1ccccc1)NC(=O)[C@@H](NC(=O)CNC(=O)[C@H](CCC(=O)O)NC(=O)CNC(=O)[C@@H](N)Cc1c[nH]cn1)[C@@H](C)O)[C@@H](C)O)[C@@H](C)CC)[C@@H](C)CC)C(=O)N[C@@H](C)C(=O)N[C@H](C(=O)N[C@@H](CCCCN)C(=O)N[C@H](C(=O)N[C@H](C(=O)N[C@@H](CC(=O)O)C(=O)N[C@@H](CCCCN)C(=O)O)[C@@H](C)O)[C@@H](C)CC)[C@@H](C)O,immunoaffinity LC-MS/MS,"healthy human subjects, plasma","subcutaneous, 5 mg once weekly, day 36 after 6 doses, steady state, geometric mean",,AUCtau,0.0966 µM·h
CCCNCC(=O)O,shake flask,water,24 h,,logP,-1.85
NC[C@@H](C(=O)Nc1ccc(-c2cn[nH]c2)cc1)c1ccccc1,,"New Zealand White rabbits, plasma","topical, 0.1 % one drop",,unbound plasma concentration,0.29 ng/mL
CCCC[C@H](NC(C)=O)C(=O)N[C@H]1CC(=O)NCCCC[C@@H](C(=O)N[C@@H](C(=O)N2CCC[C@@H]2C(N)=O)C(C)C)NC(=O)[C@H](Cc2c[nH]c3ccccc23)NC(=O)[C@H](CCCN=C(N)N)NC(=O)[C@@H](Cc2ccc3ccccc3c2)NC(=O)[C@@H]2CCCN2C1=O,,"healthy dogs, plasma","subcutaneous, 2.25 mg/kg per day, day 28 predose, median",,plasma histamine,17.5 ng/mL
CC(C)c1cnc(-c2cc(Cl)ccc2F)cc1Nc1ccncc1C(=O)NC(CO)CO,measured: intracranial tumour haemorrhage,human patients,"oral, dose not given, grade 4",,patients with related SAE,0%
Cc1c(Cl)c(C)[n+]([O-])c(Cl)c1-c1no[14c](-c2cc(O)c(O)c([N+](=O)[O-])c2)n1,,"human, male, urine","oral, 100 mg, first 24 h",baseline: dose,total radioactivity recovered,~3%
Cc1ccc(/N=N/c2c(O)ccc3ccccc23)c(C)c1,,extracted rat blood QC samples,"0.2 µg/L, 2 h, room temperature, short-term stability",,measured concentration,0.213 µg/L
CC12CC(c3ccc(C(=O)CO)cc3)C3=C4CCC(=O)C=C4CCC3C1CCC2(O)C(F)(F)C(F)(F)F (centres unmarked),,human liver microsomes,100 % absorption assumed,,maximal oral bioavailability,58%
CCCC[C@H](NC(=O)CNC(=O)CNC(=O)CN1CCN(CC(=O)O)CCN(CC(=O)O)CCN(CC(=O)O)CC1)C(=O)N[C@H]1CC(=O)NCCCC[C@@H](C(N)=O)NC(=O)[C@H](Cc2c[nH]c3ccccc23)NC(=O)[C@H](CCCNC(=N)N)NC(=O)[C@@H](Cc2ccccc2)NC(=O)[C@H](Cc2c[nH]cn2)NC1=O [gallium-67 labelled],,"C57 mice, female, B16/F1 melanoma, tumour over blood","intravenous, 0.037 MBq, 4 h",,tumour to tissue uptake ratio,47.7
C#CCNC(=O)C(CC(C)(C)F)NC(c1ccc(-c2ccc(S(C)(=O)=O)cc2)cc1)C(F)(F)F (centres unmarked),LC-MS UV trace,aqueous buffer,"concentration not given, 23 h, pH 5.5, 37 °C, with: cysteine 10 mM",,cysteine adduct formation,< 1%
CCCC[C@H](NC(=O)CN1CCC(NC(=O)CN2CCN(CC(=O)O)CCN(CC(=O)O)CCN(CC(=O)O)CC2)CC1)C(=O)N[C@H]1CC(=O)NCCCC[C@@H](C(N)=O)NC(=O)[C@H](Cc2c[nH]c3ccccc23)NC(=O)[C@H](CCCNC(=N)N)NC(=O)[C@@H](Cc2ccccc2)NC(=O)[C@H](Cc2c[nH]cn2)NC1=O,biodistribution,C57BL/6J mouse male tumour-bearing,"2 h post injection, unblocked",baseline: tumour over kidney,tumour to kidney ratio,4 ± 0.9
CC(C)(O)c1ncc([S@](N)(=O)=NC(=O)Nc2c3c(cc4c2CCC4)CCC3)s1,,"healthy human volunteers, plasma","oral, 100 mg once daily, day 14, spray-dried dispersion",,Tmax,3 h
NS(=O)(=O)c1ccc(N2N=C(C(F)(F)F)CC2c2ccc(F)cc2F)cc1 (centres unmarked),,"Beagle dog, both sexes, plasma","oral, 4 mg/kg, single dose",,AUC(0-24h),12300 ± 4330 ng·h/mL
N=C(N)NCCC[C@@H]1NC(=O)[C@H](Cc2c[nH]c3ccccc23)NC(=O)[C@@H](CC2CCCCC2)NC(=O)[C@@H]2CCCN2C(=O)[C@@H](NC(=O)CCc2ccccc2)CCCNC1=O,,"C57BL/6J mouse, spinal cord","oral, 1 mg/kg, single dose, two-compartment model",,distribution rate constant (K12),< 0.01 h⁻¹
CC[C@@H](C)[C@H]1NC(=O)[C@@H]([C@H](C)O)NC(=O)[C@@H](Cc2c[nH]cn2)NC(=O)CNC(=O)[C@@H](CCCNC(=N)N)NC(=O)CNC(=O)[C@@H](Cc2ccccc2)NC1=O,,rat,"eye drop, single dose",baseline: retina over vitreous,retina to vitreous ratio,~10 fold
COc1ccc(/C=C/c2ccc(-c3ccc(C)cn3)nc2)cc1,,aqueous HEPES buffer,"pH 7.4, zinc(II) complex",,fluorescence lifetime,2.69 ns
C[C@H]1C[C@@H](Oc2cccc(F)n2)CCN1Cc1cnc(N[11C](C)=O)s1,,"rhesus monkey, plasma","dose not given, 30 min, baseline",,unchanged parent,~60%
CCC1CC2C(C)=CC3C(=O)CCCC3C=CC(C)=CC2C(=O)O1 (centres unmarked),,"male ICR mice, brain","oral, 30 mg/kg, 30 min",,concentration,3 ± 3.2 ng/g
CCCC[C@H](NC(=O)CNC(=O)CNC(=O)CN1CCN(CC(=O)O)CCN(CC(=O)O)CC1)C(=O)N[C@H]1CC(=O)NCCCC[C@@H](C(N)=O)NC(=O)[C@H](Cc2c[nH]c3ccccc23)NC(=O)[C@H](CCCNC(=N)N)NC(=O)[C@@H](Cc2ccccc2)NC(=O)[C@H](Cc2c[nH]cn2)NC1=O [copper-64 labelled],,"female C57 mouse, B16/F1 melanoma","intravenous, 0.037 MBq, 0.5 h",baseline: tumour over muscle,uptake ratio,40.4
Cc1ccc(OCC(=O)O)cc1,,"Sprague-Dawley rat Crl:CD(SD), female, plasma","oral, 100 mg/kg/day of parent drug, day 90, 90-day repeated dosing",,t1/2,3.32 h
CCCC[C@@H]1NC(=O)[C@@H](NC(=O)[C@H](CCC(=O)O)NC(=O)CNC(=O)CN2CCN(CC(=O)O)CCN(CC(=O)O)CCN(CC(=O)O)CC2)CCCCNC(=O)C[C@@H](C(N)=O)NC(=O)[C@H](C(C)C)NC(=O)[C@@H]2CCCN2C(=O)[C@H](CCCNC(=N)N)NC(=O)CNC(=O)[C@H](Cc2c[nH]c3ccccc23)NC(=O)[C@H](CCCNC(=N)N)NC(=O)[C@@H](Cc2ccccc2)NC(=O)[C@H](Cc2c[nH]cn2)NC(=O)[C@H](CCC(=O)O)NC1=O [gallium-67 labelled],,"C57 mice, B16/F1 flank melanoma","intravenous, 0.5 h",baseline: tumour over skin,tissue ratio,5.3
CCCC[C@H](NC(=O)CNC(=O)CNC(=O)CN1CCN(CC(=O)O)CCN(CC(=O)O)CCN(CC(=O)O)CC1)C(=O)N[C@H]1CC(=O)NCCCC[C@@H](C(N)=O)NC(=O)[C@H](Cc2c[nH]c3ccccc23)NC(=O)[C@H](CCCNC(=N)N)NC(=O)[C@@H](Cc2ccccc2)NC(=O)[C@H](Cc2c[nH]cn2)NC1=O [indium-111 labelled],,"C57 mouse, female, B16/F1 melanoma, urine","intravenous, 0.037 MBq, 4 h",,urinary excretion,88.4 ± 3.06%
O=C(O)c1cc2cc(O)ccc2n1Cc1ccc(Cl)c(C(F)(F)F)c1,,male Wistar Hannover rat,"oral, 200 mg/kg single dose",,serum ALT,83 U/L
CCOc1ccc2c(c1)C(C)CC(C)(C)N2 (centres unmarked),LC-MS/MS,"laying hens, skin and fat","oral in feed, 50 mg/kg feed ethoxyquin, 56 days",,tissue residue,1.8 ± 1.5 ng/g
CC[C@H](C)[C@H](NC(=O)[C@H](C)NC(=O)CNC(=O)[C@H](Cc1ccccc1)NC(=O)[C@H](CC(N)=O)NC(=O)[C@H](CC(N)=O)NC(=O)[C@H](CO)NC(=O)[C@H](CO)NC(=O)[C@H](Cc1c[nH]cn1)NC(=O)[C@@H](NC(=O)[C@H](CC(C)C)NC(=O)[C@H](Cc1ccccc1)NC(=O)[C@H](CC(N)=O)NC(=O)[C@H](C)NC(=O)[C@H](CC(C)C)NC(=O)[C@H](CCCNC(=N)N)NC(=O)[C@H](CCC(N)=O)NC(=O)[C@@H](NC(=O)[C@H](C)NC(=O)[C@@H]1CSSC[C@H](NC(=O)[C@@H](N)CCCCN)C(=O)N[C@@H](CC(N)=O)C(=O)N[C@@H]([C@@H](C)O)C(=O)N[C@@H](C)C(=O)N[C@@H]([C@@H](C)O)C(=O)N1)[C@@H](C)O)C(C)C)C(=O)N[C@@H](CC(C)C)C(=O)N1CCC[C@H]1C(=O)N1CCC[C@H]1C(=O)N[C@H](C(=O)N[C@@H](CC(N)=O)C(=O)N[C@H](C(=O)NCC(=O)N[C@@H](CO)C(=O)N[C@@H](CC(N)=O)C(=O)N[C@H](C(=O)N[C@@H](Cc1ccc(O)cc1)C(N)=O)[C@@H](C)O)C(C)C)[C@@H](C)O,ion mobility mass spectrometry,ammonium acetate,"pH 7.5, monomer ion charge +2",,collision cross section,553 ± 5.9 Å²
Cn1c(=O)oc2ccc(-c3ccc(CC(C#N)NC(=O)C4CNCCCO4)c(F)c3)cc21 (centres unmarked),measured: urinary occult blood positive,human,"40 mg single dose, fasted",,subjects with TEAE,0%
CCOc1c(C(C)(C)O)sc2cnc(Nc3ccc(N4CCC(N5CC6(COC6)C5)CC4)cc3OC)nc12,,"New Zealand rabbit, male, isolated Purkinje fibres","30 µM, 45 min, pacing 1 Hz",,action potential amplitude change,-2%
CC(O)c1cc(Cl)ccc1Cn1c(=S)[nH]c(=O)c2[nH]ccc21 (centres unmarked),,"Sprague-Dawley rat, male, plasma","oral, 125 mg/kg/day",baseline: rat over human 5 mg,exposure ratio,9.2
CC/C=C\C/C=C\C/C=C\C/C=C\C/C=C\CCCCOC(CC)C(=O)O (centres unmarked),"radioactivity, 14C-labelled","Wistar rat, male, kidney medulla","oral, 100 mg/kg, 1 day",,tissue concentration,34.5 µg equivalents/g tissue
CC1=C(C2=C(C)C(=O)c3c(cc(O)c(O)c3Cc3ccccc3)C2=O)C(=O)c2cc(O)c(O)c(Cc3ccccc3)c2C1=O (racemic),,rat liver microsomes,"4 µM, 1 h, pH 7.4",,degraded compound,19.3 ± 5.4%
CC(=O)N[C@H](CSSC[C@H](N)C(=O)O)C(=O)N[C@H](C)C(=O)N[C@H](CCCNC(=N)N)C(=O)N[C@H](CCCNC(=N)N)C(=O)N[C@H](CCCNC(=N)N)C(=O)N[C@H](C)C(=O)N[C@H](CCCNC(=N)N)C(N)=O,,"male human, plasma","intravenous, 2 mg, single dose, healthy volunteers",,AUC(0-inf),293 ng·h/mL
CC(C)[C@H](NC(=O)[C@@H]1CCCN1C(=O)[C@H](CCCNC(=N)N)NC(=O)[C@H](CS)NC(=O)[C@H](Cc1c[nH]c2ccccc12)NC(=O)[C@H](CCCNC(=N)N)NC(=O)[C@@H](Cc1ccccc1)NC(=O)[C@H](Cc1c[nH]cn1)NC(=O)[C@H](CCC(=O)O)NC(=O)[C@H](CS)NC(=O)[C@H](CS)NC(=O)[C@@H]1CC(=O)N[C@@H](CCCNC(=N)N)C(=O)NCC(=O)N[C@@H](CC(=O)O)C(=O)N[C@H](Cc2ccc(O)cc2)C(=O)N1)C(N)=O [technetium-99m labelled],,C57 mice B16/F1 melanoma female,"iv, 2 h, with: NDP-MSH blockade",baseline: tumour over lung,tumour-to-tissue ratio,2.26

# Repeated from above:
Compound,test,system,conditions,how to read,measurement,result
CCCC[C@H](NC(=O)CNC(=O)CNC(=O)CN1CCN(CC(=O)O)CCN(CC(=O)O)CCN(CC(=O)O)CC1)C(=O)N[C@H]1CC(=O)NCCCC[C@@H](C(N)=O)NC(=O)[C@H](Cc2c[nH]c3ccccc23)NC(=O)[C@H](CCCNC(=N)N)NC(=O)[C@@H](Cc2ccccc2)NC(=O)[C@H](Cc2c[nH]cn2)NC1=O [indium-111 labelled],,"C57 mouse, female, B16/F1 melanoma, urine","intravenous, 0.037 MBq, 4 h",,urinary excretion,88.4 ± 3.06%
Cc1c(Cl)c(C)[n+]([O-])c(Cl)c1-c1no[14c](-c2cc(O)c(O)c([N+](=O)[O-])c2)n1,,"human, male, urine","oral, 100 mg, first 24 h",baseline: dose,total radioactivity recovered,~3%
CC12CC(c3ccc(C(=O)CO)cc3)C3=C4CCC(=O)C=C4CCC3C1CCC2(O)C(F)(F)C(F)(F)F (centres unmarked),,human liver microsomes,100 % absorption assumed,,maximal oral bioavailability,58%
NS(=O)(=O)c1ccc(N2N=C(C(F)(F)F)CC2c2ccc(F)cc2F)cc1 (centres unmarked),,"Beagle dog, both sexes, plasma","oral, 4 mg/kg, single dose",,AUC(0-24h),12300 ± 4330 ng·h/mL
CC(C)c1cnc(-c2cc(Cl)ccc2F)cc1Nc1ccncc1C(=O)NC(CO)CO,measured: intracranial tumour haemorrhage,human patients,"oral, dose not given, grade 4",,patients with related SAE,0%
